# Earlier results, collected from citations in different studies.
# Compare with care: the assays were run in different laboratories. Numbers after ± are the reported error.
SMILES,tested on,assay,test system,setting,scale,quantity,value
N=C(N)c1ccc(OCCCCCOc2ccc(C(=N)N)cc2)cc1,Trypanosoma brucei brucei,cell growth,GUTat3.1,,,IC50,41 ± 2.3 nM
C[C@]12CC[C@@H]3c4cc(C56CC7CC(CC(C7)C5)C6)c(O)cc4CC[C@H]3[C@@H]1CC[C@@H]2O,HT-22,cell protection,,together with: iodoacetic acid 40 µM,,EC50,152 nM
Cc1ccc(C(=O)c2oc3ccc4c(C)cc(=O)oc4c3c2C)cc1,Trypanosoma brucei brucei,,Squib 427,,,IC50,> 32000 nM
C[C@](C#N)(COc1cc(C#N)ccc1C(F)(F)F)NC(=O)c1ccc(SC(F)(F)F)cc1,gastrointestinal nematodes,,"resistant to benzimidazoles or levamisole, sheep","oral, dose not given",,efficacy,> 95%
COc1ccc2sc(N(Cc3cccnc3)C(=O)c3ccc(C#N)cc3)nc2c1,Trypanosoma brucei brucei,,Squib 427,,,IC50,> 32000 nM
Nc1ncnc2c1ncn2[C@@H]1O[C@H](COS(=O)(=O)NC(=O)c2ccccc2O)[C@@H](O)[C@H]1O,Mycobacterium tuberculosis,,"H37Rv, iron-deficient GAS medium",pH 6.6,,MIC,0.39 µM
CC(C)c1cnn2c(NCc3ccccc3-n3cccn3)nc(OC3CCCNC3)nc12 (stereo not drawn),human cytomegalovirus,viral replication,,,,EC50,9 nM
Cc1cc(Nc2ccc(C(F)(F)F)cc2)n2ncnc2n1,Plasmodium berghei,,mouse,"oral, 50 mg/kg 1 times daily for 4 days",,parasitaemia suppression,71%
Cc1cc(Nc2ccc(C)c(Cl)c2)n2nc(C(F)(F)F)nc2n1,Trypanosoma brucei rhodesiense,,STIB 900,,,IC50,15900 nM
O=C(N[C@@H](Cn1ccnc1)c1ccc(Cl)cc1Cl)c1ccc(-c2nnc(-c3ccccc3)o2)cc1,Trypanosoma cruzi,,"Tulahuen, mouse, Chagas disease model",dose not given,,cure rate,100%
Clc1cc(Br)ccc1-c1ccc(CNCC2CCNCC2)o1,Trypanosoma brucei rhodesiense,,STIB 900,,,IC50,100 nM
Nc1ncnc2c1nc(Br)n2[C@@H]1O[C@@H]2COP(=O)(O)O[C@H]2[C@H]1O,PDE1A,"cyclic nucleotide hydrolysis, substrate or inhibitor, isothermal titration calorimetry",,,,Km or Ki,32800 nM
COCCNC(=O)c1ccc(OC2CCN(Cc3ccc(F)c(F)c3)CC2)c(Cl)c1,Trypanosoma brucei brucei,,Squib 427,,,IC50,> 32000 nM
C[C@]12CC[C@@H]3c4cc(C56CC7CC(CC(C7)C5)C6)c(O)cc4CC[C@H]3[C@@H]1CCC2=O,HT-22,cell protection,,together with: glutamate 10 mM,,EC50,159 nM
NCCCC(N)(C(=O)O)C(F)F (stereo not drawn),Trypanosoma evansi,cell growth,Tansui,,,IC50,57200 ± 17600 nM
CO/N=C1\CN(c2nc3c(cc2F)c(=O)c(C(=O)O)cn3C2CC2)CC1CN (stereo not drawn),Streptococcus pyogenes,,,,,MIC90,0.06 µg/mL
C[C@H]1c2cccc(O)c2C(=O)C2=C(O)[C@]3(O)C(=O)C(C(N)=O)=C(O)[C@@H](N(C)C)[C@@H]3[C@@H](O)[C@@H]21,Brugia malayi,Wolbachia depletion above 90%,SCID mouse,exposure equivalent to human 100 mg/day,,treatment duration,6 week
CC1(C)C(C=C(Cl)Cl)C1C(=O)OCc1cccc(Oc2ccccc2)c1 (stereo not drawn),Anopheles funestus,,FUMOZ-R,,baseline: FUMOZ-R over Anopheles gambiae Kisumu,resistance ratio,11.5
CN1CCN(C(=O)N[C@@H](Cc2ccccc2)C(=O)N[C@H](/C=C/S(=O)(=O)c2ccccc2)CCc2ccccc2)CC1,Trypanosoma brucei,parasite growth,,,,GI50,7000 nM
Cc1ccc(C(=O)Nc2ccc(S(=O)(=O)O)c3cc(S(=O)(=O)O)cc(S(=O)(=O)O)c23)cc1NC(=O)c1cccc(NC(=O)Nc2cccc(C(=O)Nc3cc(C(=O)Nc4ccc(S(=O)(=O)O)c5cc(S(=O)(=O)O)cc(S(=O)(=O)O)c45)ccc3C)c2)c1,Trypanosoma brucei rhodesiense,cell growth,IL1501,,,IC50,76 ± 11 nM
C[C@H](CCC(=O)O)[C@H]1CC[C@H]2[C@@H]3[C@@H](O)C[C@@H]4C[C@H](O)CC[C@]4(C)[C@H]3CC[C@]12C,Clostridioides difficile,spore germination,NAP1,"20 min, together with: taurocholate 2000 µM",,complete inhibition concentration,500 µM
